{"data": "Measurements pooled from the literature", "note": "Every numbered part comes from another study and shows a few of its results, in no order. “And” joins repeats or separate records; there may be more than shown.", "chain of UniProt Q05397 (whole entry, looked up)": "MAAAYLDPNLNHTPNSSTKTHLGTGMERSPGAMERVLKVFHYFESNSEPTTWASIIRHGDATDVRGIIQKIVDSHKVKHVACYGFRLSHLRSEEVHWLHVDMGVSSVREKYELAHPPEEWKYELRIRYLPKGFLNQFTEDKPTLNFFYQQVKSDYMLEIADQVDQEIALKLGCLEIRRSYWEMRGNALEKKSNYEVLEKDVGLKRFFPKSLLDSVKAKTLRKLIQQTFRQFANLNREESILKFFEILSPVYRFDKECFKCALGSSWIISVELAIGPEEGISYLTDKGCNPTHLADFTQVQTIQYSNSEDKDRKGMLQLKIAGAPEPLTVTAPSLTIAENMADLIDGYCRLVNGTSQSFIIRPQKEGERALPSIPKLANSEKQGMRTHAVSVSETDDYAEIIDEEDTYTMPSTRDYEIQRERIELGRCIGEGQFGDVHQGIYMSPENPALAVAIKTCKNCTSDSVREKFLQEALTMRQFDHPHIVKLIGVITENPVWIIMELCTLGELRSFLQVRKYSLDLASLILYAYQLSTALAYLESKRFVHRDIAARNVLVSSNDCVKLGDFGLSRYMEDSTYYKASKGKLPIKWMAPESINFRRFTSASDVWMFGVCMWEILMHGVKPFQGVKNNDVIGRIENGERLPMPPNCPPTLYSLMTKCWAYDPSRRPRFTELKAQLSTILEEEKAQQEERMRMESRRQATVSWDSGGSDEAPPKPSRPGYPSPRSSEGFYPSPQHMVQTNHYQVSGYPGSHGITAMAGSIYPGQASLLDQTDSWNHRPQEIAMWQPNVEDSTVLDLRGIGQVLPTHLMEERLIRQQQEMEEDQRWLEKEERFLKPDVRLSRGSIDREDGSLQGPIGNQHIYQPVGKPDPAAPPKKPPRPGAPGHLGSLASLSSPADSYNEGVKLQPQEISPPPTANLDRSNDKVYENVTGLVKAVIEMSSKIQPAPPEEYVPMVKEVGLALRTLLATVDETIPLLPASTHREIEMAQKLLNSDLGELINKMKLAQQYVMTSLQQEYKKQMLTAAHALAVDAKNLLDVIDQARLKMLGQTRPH", "chain of UniProt P11802 (whole entry, looked up)": "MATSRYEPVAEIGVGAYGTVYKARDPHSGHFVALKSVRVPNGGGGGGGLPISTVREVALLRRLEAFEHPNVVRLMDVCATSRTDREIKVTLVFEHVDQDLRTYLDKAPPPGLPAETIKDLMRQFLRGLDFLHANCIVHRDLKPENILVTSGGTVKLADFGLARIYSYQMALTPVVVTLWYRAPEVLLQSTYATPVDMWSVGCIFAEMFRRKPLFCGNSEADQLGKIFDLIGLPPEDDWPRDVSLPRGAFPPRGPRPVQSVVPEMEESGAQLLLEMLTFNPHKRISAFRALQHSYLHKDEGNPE", "chain of UniProt P25098 (whole entry, looked up)": "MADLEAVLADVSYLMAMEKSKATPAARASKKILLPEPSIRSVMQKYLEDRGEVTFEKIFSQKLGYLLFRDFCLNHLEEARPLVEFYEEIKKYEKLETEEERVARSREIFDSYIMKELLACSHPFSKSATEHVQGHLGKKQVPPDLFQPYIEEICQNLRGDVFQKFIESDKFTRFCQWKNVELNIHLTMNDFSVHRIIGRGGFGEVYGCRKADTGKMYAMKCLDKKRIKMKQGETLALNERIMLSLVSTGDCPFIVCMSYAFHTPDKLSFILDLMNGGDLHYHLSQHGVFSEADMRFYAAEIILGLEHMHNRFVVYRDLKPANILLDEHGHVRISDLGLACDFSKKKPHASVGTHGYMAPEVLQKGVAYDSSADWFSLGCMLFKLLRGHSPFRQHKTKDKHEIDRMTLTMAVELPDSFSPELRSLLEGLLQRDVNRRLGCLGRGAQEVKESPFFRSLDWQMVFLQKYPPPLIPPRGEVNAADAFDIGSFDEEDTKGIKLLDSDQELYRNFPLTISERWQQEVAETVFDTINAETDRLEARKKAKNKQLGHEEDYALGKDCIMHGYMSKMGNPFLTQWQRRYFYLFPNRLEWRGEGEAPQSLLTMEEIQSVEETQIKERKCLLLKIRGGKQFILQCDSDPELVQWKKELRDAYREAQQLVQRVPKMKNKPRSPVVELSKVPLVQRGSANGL", "chain of UniProt Q9Y6E0 (whole entry, looked up)": "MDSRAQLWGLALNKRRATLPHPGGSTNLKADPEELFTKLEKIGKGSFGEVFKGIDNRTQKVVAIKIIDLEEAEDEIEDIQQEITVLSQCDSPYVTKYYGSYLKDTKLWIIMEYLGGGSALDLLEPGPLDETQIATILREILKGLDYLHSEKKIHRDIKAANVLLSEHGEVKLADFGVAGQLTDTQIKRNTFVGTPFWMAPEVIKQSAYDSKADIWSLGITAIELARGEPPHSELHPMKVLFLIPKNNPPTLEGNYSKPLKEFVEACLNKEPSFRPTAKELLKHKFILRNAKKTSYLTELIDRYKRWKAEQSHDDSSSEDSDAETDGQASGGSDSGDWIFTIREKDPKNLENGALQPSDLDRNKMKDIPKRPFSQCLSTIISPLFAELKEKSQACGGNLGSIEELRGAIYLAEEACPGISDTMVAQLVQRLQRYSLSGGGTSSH", "chain of UniProt O43318 (whole entry, looked up)": "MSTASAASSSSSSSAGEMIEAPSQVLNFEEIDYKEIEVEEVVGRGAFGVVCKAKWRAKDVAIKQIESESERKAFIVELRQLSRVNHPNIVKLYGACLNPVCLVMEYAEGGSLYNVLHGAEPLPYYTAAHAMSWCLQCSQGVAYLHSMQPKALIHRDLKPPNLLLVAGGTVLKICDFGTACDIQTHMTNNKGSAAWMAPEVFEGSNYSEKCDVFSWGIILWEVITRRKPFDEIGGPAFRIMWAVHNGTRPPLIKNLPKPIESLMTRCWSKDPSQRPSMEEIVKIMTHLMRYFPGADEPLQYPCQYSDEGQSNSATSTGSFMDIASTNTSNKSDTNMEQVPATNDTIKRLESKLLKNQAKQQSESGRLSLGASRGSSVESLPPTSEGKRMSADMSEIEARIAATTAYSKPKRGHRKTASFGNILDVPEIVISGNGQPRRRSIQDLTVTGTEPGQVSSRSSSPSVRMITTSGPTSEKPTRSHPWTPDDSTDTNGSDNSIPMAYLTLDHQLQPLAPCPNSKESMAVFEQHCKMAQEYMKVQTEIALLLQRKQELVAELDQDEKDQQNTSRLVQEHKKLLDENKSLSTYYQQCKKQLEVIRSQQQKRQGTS", "chain of UniProt P49840 (whole entry, looked up)": "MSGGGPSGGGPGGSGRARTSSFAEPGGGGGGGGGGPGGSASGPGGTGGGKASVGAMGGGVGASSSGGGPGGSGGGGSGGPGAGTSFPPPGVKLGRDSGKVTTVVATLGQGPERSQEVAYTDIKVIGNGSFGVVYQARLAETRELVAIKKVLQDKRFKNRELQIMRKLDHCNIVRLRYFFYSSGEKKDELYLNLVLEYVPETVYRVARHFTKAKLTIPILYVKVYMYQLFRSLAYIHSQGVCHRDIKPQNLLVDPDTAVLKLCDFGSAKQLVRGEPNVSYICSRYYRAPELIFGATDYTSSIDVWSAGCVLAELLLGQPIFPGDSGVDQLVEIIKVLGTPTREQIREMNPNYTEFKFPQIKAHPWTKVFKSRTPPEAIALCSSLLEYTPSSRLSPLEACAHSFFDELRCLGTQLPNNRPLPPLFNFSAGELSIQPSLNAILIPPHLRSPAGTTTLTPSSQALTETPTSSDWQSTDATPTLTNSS", "chain of UniProt Q9H0Z9 (10-130, looked up)": "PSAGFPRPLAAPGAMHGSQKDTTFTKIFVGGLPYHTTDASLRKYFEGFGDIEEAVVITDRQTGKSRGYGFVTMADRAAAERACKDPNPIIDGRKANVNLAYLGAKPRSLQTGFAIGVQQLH", "chain of UniProt P42679 (whole entry, looked up)": "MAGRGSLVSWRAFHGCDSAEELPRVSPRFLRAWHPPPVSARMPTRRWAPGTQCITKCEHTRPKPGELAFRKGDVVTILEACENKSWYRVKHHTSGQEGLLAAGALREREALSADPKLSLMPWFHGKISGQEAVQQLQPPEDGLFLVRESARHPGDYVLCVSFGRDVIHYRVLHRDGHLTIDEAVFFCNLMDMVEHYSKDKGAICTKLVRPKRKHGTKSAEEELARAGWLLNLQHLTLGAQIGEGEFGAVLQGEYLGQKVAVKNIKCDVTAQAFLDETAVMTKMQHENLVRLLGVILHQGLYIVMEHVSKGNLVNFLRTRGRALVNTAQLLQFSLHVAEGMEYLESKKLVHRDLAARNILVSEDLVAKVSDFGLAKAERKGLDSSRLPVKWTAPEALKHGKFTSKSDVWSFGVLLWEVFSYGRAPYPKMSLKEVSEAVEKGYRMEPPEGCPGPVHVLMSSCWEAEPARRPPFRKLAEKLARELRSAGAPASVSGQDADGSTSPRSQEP", "chain of UniProt P36894 (whole entry, looked up)": "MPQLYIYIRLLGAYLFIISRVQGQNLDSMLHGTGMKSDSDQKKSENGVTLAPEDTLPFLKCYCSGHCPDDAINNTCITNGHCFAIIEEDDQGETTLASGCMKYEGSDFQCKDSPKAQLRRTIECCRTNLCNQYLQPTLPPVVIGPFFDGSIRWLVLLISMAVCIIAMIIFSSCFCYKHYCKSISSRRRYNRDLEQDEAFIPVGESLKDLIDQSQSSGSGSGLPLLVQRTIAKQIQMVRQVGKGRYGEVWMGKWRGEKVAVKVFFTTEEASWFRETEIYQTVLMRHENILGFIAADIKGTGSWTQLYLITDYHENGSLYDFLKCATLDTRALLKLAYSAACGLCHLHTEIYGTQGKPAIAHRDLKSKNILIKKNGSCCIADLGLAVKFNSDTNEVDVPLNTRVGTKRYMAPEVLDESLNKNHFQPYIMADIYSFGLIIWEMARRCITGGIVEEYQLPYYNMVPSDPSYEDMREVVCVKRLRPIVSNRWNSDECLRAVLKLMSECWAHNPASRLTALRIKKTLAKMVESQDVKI"}
{"data": "Series 1", "target": "POU, POU domain (Salpingoeca helianthica)", "technique": "Spec-seq", "form": "double-stranded DNA, one strand shown", "medium": "in vitro", "concentration": "not given", "setting": "whole probe, mean of replicates", "reference": "not given", "reading": "lower = stronger binding", "shared flanks, not repeated": "GAGTCGTCTCGTCAGCAC … CCGTAGAGCACTCAGGTC", "Target sequence (chain)": "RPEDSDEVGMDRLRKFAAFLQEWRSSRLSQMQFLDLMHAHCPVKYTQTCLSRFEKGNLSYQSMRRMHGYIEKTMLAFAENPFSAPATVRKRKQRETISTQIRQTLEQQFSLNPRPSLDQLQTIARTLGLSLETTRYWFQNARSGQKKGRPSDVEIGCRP"}
{"Oligonucleotide": "ATGCAGAA", "relative binding energy": "1.18 ln ratio"}
{"Oligonucleotide": "TACCTAAT", "relative binding energy": "0.81 ln ratio"}
{"Oligonucleotide": "ATGAAGAT", "relative binding energy": "1.47 ln ratio"}
{"Oligonucleotide": "ATGCTGCA", "relative binding energy": "1.23 ln ratio"}
{"Oligonucleotide": "ATACCCAT", "relative binding energy": "1.29 ln ratio"}
{"Oligonucleotide": "ATAAACAT", "relative binding energy": "0.361 ln ratio"}
{"Oligonucleotide": "CGTTTAAT", "relative binding energy": "-0.407 ln ratio"}
{"Oligonucleotide": "ATGCGCAG", "relative binding energy": "1.59 ln ratio"}
{"data": "Series 2", "cell line": "mouse MPNST tumor cells", "technique": "high-content nuclear imaging", "item": "cell number", "concentration": "10 µM", "time": "12 h", "setting": "mean of 2 replicates", "reference": "plate mean", "reading": "higher = more cells"}
{"SMILES": "CCOC(=O)[C@]12CC1/C(=N\\O)c1ccccc1O2 (some centres unmarked)", "nuclei count": "-0.0357 z-score"}
{"SMILES": "Nc1nc(F)nc2c1ncn2[C@@H]1O[C@H](CO)[C@@H](O)[C@@H]1O", "nuclei count": "0.839 z-score and 0.547 z-score"}
{"SMILES": "CC[N+](C)(C)Cc1ccccc1Br", "nuclei count": "3.89 z-score and 1.73 z-score"}
{"SMILES": "C[C@H](NC(=O)c1sccc1OCc1ccc(Cl)cc1)c1ccccc1", "nuclei count": "2.28 z-score"}
{"SMILES": "CC(C)c1ccc(CC(=O)N2CCCC(c3cccc(OC(C)(C)C(=O)O)c3)C2)cc1 (centres unmarked)", "nuclei count": "-0.127 z-score"}
{"data": "Series 3", "SMILES": "CN([C@@H]1CCc2c(CC(=O)O)c3ccccc3n2C1)S(=O)(=O)c1ccc(F)cc1", "technique": "competition with immobilised ligand", "concentration": "1 µM"}
{"target": "Focal adhesion kinase 1 (PTK2, Homo sapiens, UniProt Q05397)", "test": "cell-free assay", "remaining binding": "100%"}
{"target": "Phosphatidylinositol 4,5-bisphosphate 3-kinase catalytic subunit alpha isoform (PIK3CA, Homo sapiens, UniProt P42336, E545A)", "test": "cell-free assay", "remaining binding": "100%"}
{"target": "Bone morphogenetic protein receptor type-1A (BMPR1A, Homo sapiens, UniProt P36894)", "test": "binding", "remaining binding": "100%"}
{"target": "Mitogen-activated protein kinase kinase kinase 5 (MAP3K5, Homo sapiens, UniProt Q99683)", "test": "cell-free assay", "remaining binding": "100%"}
{"target": "Ribosomal protein S6 kinase alpha-5, C-terminal kinase domain (RPS6KA5, Homo sapiens, UniProt O75582)", "test": "cell-free assay", "remaining binding": "79%"}
{"target": "Glycogen synthase kinase-3 alpha (GSK3A, Homo sapiens, UniProt P49840)", "test": "cell-free assay", "remaining binding": "90%"}
{"target": "Beta-adrenergic receptor kinase 1 (GRK2, Homo sapiens, UniProt P25098)", "test": "cell-free assay", "remaining binding": "86%"}
{"target": "Tyrosine-protein kinase Mer (MERTK, Homo sapiens, UniProt Q12866)", "test": "cell-free assay", "remaining binding": "100%"}
{"target": "Megakaryocyte-associated tyrosine-protein kinase (MATK, Homo sapiens, UniProt P42679)", "test": "cell-free assay", "remaining binding": "100%"}
{"target": "Serine/threonine-protein kinase 24 (STK24, Homo sapiens, UniProt Q9Y6E0)", "test": "cell-free assay", "remaining binding": "100%"}
{"target": "Cyclin-dependent kinase 4 (CDK4, Homo sapiens, UniProt P11802)", "test": "cell-free assay", "remaining binding": "87%"}
{"target": "Mitogen-activated protein kinase kinase kinase 7 (MAP3K7, Homo sapiens, UniProt O43318)", "test": "cell-free assay", "remaining binding": "100%"}
{"target": "Leucine-rich repeat serine/threonine-protein kinase 2 (LRRK2, Homo sapiens, UniProt Q5S007, G2019S)", "test": "cell-free assay", "remaining binding": "100%"}
{"data": "Series 4", "host": "mouse", "medium": "microsomes or S9", "concentration": "2 µM", "time": "0.5 h"}
{"SMILES": "O=c1[nH]c(-c2ccc(F)cc2)c(-c2ccc(F)cc2)c(=O)n1Cc1ccc(Cl)cc1Cl", "remaining compound [%]": 77.6}
{"SMILES": "O=C(O)CCCCC/N=C1\\CCc2ccccc2N1", "remaining compound [%]": "> 99.9"}
{"SMILES": "COc1ccc([C@H]2Oc3cc(OC)cc(OC)c3C[C@H]2O)cc1", "remaining compound [%]": 0.481}
{"SMILES": "COC(=O)c1ccc(C2NN(C)C3C(=O)N(C(C)C)C(=O)C23)cc1 (centres unmarked)", "remaining compound [%]": 67.6}
{"SMILES": "CC(=O)OC(CF)c1cc(F)ccc1S(N)(=O)=O (centres unmarked)", "remaining compound [%]": 8.71}
{"data": "Further values, each from its own experiment"}
{"Oligonucleotide": "AAAAAAAA (biotin)", "target": "RNA-binding protein 38, RRM domain (RBM38, Homo sapiens, UniProt Q9H0Z9, residues 10-130)", "test": "protein domain microarray", "system": "RNA, in vitro", "conditions": "not given, poly(A) 8-mer RNA, whole probe, immobilized GST-fusion domains, most near background", "scale": "reference: GST loading signal, higher = stronger binding", "measurement": "signal ratio", "value": 0.035}
{"note": "For quick reference, copied from above (series 4):"}
{"SMILES": "O=c1[nH]c(-c2ccc(F)cc2)c(-c2ccc(F)cc2)c(=O)n1Cc1ccc(Cl)cc1Cl", "remaining compound [%]": 77.6}
{"SMILES": "O=C(O)CCCCC/N=C1\\CCc2ccccc2N1", "remaining compound [%]": "> 99.9"}
{"SMILES": "COc1ccc([C@H]2Oc3cc(OC)cc(OC)c3C[C@H]2O)cc1", "remaining compound [%]": 0.481}
{"SMILES": "COC(=O)c1ccc(C2NN(C)C3C(=O)N(C(C)C)C(=O)C23)cc1 (centres unmarked)", "remaining compound [%]": 67.6}
{"SMILES": "CC(=O)OC(CF)c1cc(F)ccc1S(N)(=O)=O (centres unmarked)", "remaining compound [%]": 8.71}
